# Experimental data collected from several papers.
# Each numbered part is a random draw from the data of one study; scales do not carry over between parts.

# Block 1
# Target: RING finger protein unkempt homolog, zinc fingers 1-6, GST-SBP tag (UNK, Homo sapiens, UniProt Q9C0B0, residues 30-357)
# Technique: RNA Bind-n-Seq
# Molecule type: RNA
# Matrix: in vitro
# Concentration: not given
# Setting: RNA with constant flanks, human and mouse sites, ends assumed
# Reference: input RNA pool
# Direction: higher = stronger binding
# Constant ends, left off below: GGGAGUUCUACAGUCCGACGAUC … CAACAGAGGAUUGAGCAUCA
# Construct (chain): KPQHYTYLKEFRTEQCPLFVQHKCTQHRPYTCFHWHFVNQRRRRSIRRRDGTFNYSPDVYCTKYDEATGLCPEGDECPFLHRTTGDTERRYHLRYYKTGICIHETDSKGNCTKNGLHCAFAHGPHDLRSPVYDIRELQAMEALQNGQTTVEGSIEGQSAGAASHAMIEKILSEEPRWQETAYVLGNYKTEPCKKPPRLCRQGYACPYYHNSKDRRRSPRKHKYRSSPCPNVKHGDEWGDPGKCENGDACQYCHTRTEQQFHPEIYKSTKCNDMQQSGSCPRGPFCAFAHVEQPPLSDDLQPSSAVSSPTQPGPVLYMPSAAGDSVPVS
Sequence,bound/input enrichment
UCCCAGACUCCAACUCCCAGUUCUACUUUCUUCCAGGCAGAGCUGUGGAUCAAAGAAUUAACUAGUGUUUAUGAUUCUCGAGCACGAGAAAGAUUGCGCCAGAUUGAAGAACAGAAGGCA,1.22 ratio
ACCUCGUUUCUUUAUCUUCUUUUUUAUUUUCUUUCUUUUUCUUCGUUUUUUUUUUUUUUCUAGUGUUGUUACCCACGCCAUUUUACGUCUCCUUCACUGAAGGGCUAGAGUUUUAACUUU,28.1 ratio
CGCAAUGAACUCCUUUGUUUAAGUCUUUAAGCUCUGUGCCAAUGUCUAAUCUCUCUGGAAUGGUUUUCCUGAACACCUGUCAUCCCUCUCAUACUACGGACAUAUGGGUAGAAAGAAUGU,0.261 ratio
UUUCCAGACCAAGGAUACAGAGGCCGAGGCAGAGGCGAGUAUUACUCCAGAGGUCGGAGCUAUAGAGGCUCUUAUGGGGGUCGUGGCAGAGGUGGUAGAGGGCACACUCGUGAGUAUCCU,0.597 ratio
CUUUAUGGGCCUCGAAGAGUUGAAAUAAUGGAAGAAGAAAGUGAACAGUAAUCUUCAAUUUAGCUAUUUAUGCUUAGGUGUGAAUGUUUUUGUUGUUGUUGUUGAACAUUUCUAUAAUCU,0.283 ratio
CGUUUGGGAUUUUAUUUUGUCUGUGUUUGGAAUUUUACUUCUCUCUUGGACAAGAACUCAAGAACAAAAUCCUCGGAAGAGGAAGGCAUCCCUGGAGUGGUUUCUUUACUGUACUUCCAU,0.184 ratio
CUAGUGCCAUGGGAACCAGGUCUGAAAAAGUAGAGAGAAGUGAAAGUAGAGUCUGGGAAGUAGCUGCCUAUAACUGAGACUAGACGGAAAAGGAAUACUCGUGUAUUUUAAGAUAUGAAU,0.678 ratio
CUGAAGAAGACGGCCAGCCUGGGCUUCUGUGUCACCUACGUCUUCUUCAUCACCAGCCUCAUCUACCCCGCCAUCUGCACCAACAUCGAGUCCCUCAACAAGGGUUCGGGCUCACUGUGG,0.0914 ratio
GAUGAUAAUCACACAAACAAGUCACUGUUACAUGACCAGCCUUGGGAUUCUUUUCCUGAUUAAUAUUCUCCCUGGAACCACUGGUCAAGGGGAAUCAAGACGACAAGAACCCGGGGACUU,0.154 ratio
AUCAGCGAGGCGGCUGCGCAGUACAACCCGGAGCCCCCGCCCCCACGCACACAUUACUCCAACAUUGAGGCCAACGAGAGUGAGGAGGUCCGGCAGUUCCGGAGACUCUUUGCCCAGCUG,0.131 ratio
AAGAGAGAAAGGAAGAAGAAGACAGGAAGCAAGAGUGUGGACGCAGCAAAACUUGGUGCUUCUGAAAAGAACGAAAGAUUGCUUAUAAAACCACAAUGGCAUGAUUUGCUUCCAUGCAAA,0.29 ratio

# Block 2
# Target: BIRC6 UBC core domain (UniProt Q9NR09)
# UniProt Q9NR09, sequence (whole entry, looked up): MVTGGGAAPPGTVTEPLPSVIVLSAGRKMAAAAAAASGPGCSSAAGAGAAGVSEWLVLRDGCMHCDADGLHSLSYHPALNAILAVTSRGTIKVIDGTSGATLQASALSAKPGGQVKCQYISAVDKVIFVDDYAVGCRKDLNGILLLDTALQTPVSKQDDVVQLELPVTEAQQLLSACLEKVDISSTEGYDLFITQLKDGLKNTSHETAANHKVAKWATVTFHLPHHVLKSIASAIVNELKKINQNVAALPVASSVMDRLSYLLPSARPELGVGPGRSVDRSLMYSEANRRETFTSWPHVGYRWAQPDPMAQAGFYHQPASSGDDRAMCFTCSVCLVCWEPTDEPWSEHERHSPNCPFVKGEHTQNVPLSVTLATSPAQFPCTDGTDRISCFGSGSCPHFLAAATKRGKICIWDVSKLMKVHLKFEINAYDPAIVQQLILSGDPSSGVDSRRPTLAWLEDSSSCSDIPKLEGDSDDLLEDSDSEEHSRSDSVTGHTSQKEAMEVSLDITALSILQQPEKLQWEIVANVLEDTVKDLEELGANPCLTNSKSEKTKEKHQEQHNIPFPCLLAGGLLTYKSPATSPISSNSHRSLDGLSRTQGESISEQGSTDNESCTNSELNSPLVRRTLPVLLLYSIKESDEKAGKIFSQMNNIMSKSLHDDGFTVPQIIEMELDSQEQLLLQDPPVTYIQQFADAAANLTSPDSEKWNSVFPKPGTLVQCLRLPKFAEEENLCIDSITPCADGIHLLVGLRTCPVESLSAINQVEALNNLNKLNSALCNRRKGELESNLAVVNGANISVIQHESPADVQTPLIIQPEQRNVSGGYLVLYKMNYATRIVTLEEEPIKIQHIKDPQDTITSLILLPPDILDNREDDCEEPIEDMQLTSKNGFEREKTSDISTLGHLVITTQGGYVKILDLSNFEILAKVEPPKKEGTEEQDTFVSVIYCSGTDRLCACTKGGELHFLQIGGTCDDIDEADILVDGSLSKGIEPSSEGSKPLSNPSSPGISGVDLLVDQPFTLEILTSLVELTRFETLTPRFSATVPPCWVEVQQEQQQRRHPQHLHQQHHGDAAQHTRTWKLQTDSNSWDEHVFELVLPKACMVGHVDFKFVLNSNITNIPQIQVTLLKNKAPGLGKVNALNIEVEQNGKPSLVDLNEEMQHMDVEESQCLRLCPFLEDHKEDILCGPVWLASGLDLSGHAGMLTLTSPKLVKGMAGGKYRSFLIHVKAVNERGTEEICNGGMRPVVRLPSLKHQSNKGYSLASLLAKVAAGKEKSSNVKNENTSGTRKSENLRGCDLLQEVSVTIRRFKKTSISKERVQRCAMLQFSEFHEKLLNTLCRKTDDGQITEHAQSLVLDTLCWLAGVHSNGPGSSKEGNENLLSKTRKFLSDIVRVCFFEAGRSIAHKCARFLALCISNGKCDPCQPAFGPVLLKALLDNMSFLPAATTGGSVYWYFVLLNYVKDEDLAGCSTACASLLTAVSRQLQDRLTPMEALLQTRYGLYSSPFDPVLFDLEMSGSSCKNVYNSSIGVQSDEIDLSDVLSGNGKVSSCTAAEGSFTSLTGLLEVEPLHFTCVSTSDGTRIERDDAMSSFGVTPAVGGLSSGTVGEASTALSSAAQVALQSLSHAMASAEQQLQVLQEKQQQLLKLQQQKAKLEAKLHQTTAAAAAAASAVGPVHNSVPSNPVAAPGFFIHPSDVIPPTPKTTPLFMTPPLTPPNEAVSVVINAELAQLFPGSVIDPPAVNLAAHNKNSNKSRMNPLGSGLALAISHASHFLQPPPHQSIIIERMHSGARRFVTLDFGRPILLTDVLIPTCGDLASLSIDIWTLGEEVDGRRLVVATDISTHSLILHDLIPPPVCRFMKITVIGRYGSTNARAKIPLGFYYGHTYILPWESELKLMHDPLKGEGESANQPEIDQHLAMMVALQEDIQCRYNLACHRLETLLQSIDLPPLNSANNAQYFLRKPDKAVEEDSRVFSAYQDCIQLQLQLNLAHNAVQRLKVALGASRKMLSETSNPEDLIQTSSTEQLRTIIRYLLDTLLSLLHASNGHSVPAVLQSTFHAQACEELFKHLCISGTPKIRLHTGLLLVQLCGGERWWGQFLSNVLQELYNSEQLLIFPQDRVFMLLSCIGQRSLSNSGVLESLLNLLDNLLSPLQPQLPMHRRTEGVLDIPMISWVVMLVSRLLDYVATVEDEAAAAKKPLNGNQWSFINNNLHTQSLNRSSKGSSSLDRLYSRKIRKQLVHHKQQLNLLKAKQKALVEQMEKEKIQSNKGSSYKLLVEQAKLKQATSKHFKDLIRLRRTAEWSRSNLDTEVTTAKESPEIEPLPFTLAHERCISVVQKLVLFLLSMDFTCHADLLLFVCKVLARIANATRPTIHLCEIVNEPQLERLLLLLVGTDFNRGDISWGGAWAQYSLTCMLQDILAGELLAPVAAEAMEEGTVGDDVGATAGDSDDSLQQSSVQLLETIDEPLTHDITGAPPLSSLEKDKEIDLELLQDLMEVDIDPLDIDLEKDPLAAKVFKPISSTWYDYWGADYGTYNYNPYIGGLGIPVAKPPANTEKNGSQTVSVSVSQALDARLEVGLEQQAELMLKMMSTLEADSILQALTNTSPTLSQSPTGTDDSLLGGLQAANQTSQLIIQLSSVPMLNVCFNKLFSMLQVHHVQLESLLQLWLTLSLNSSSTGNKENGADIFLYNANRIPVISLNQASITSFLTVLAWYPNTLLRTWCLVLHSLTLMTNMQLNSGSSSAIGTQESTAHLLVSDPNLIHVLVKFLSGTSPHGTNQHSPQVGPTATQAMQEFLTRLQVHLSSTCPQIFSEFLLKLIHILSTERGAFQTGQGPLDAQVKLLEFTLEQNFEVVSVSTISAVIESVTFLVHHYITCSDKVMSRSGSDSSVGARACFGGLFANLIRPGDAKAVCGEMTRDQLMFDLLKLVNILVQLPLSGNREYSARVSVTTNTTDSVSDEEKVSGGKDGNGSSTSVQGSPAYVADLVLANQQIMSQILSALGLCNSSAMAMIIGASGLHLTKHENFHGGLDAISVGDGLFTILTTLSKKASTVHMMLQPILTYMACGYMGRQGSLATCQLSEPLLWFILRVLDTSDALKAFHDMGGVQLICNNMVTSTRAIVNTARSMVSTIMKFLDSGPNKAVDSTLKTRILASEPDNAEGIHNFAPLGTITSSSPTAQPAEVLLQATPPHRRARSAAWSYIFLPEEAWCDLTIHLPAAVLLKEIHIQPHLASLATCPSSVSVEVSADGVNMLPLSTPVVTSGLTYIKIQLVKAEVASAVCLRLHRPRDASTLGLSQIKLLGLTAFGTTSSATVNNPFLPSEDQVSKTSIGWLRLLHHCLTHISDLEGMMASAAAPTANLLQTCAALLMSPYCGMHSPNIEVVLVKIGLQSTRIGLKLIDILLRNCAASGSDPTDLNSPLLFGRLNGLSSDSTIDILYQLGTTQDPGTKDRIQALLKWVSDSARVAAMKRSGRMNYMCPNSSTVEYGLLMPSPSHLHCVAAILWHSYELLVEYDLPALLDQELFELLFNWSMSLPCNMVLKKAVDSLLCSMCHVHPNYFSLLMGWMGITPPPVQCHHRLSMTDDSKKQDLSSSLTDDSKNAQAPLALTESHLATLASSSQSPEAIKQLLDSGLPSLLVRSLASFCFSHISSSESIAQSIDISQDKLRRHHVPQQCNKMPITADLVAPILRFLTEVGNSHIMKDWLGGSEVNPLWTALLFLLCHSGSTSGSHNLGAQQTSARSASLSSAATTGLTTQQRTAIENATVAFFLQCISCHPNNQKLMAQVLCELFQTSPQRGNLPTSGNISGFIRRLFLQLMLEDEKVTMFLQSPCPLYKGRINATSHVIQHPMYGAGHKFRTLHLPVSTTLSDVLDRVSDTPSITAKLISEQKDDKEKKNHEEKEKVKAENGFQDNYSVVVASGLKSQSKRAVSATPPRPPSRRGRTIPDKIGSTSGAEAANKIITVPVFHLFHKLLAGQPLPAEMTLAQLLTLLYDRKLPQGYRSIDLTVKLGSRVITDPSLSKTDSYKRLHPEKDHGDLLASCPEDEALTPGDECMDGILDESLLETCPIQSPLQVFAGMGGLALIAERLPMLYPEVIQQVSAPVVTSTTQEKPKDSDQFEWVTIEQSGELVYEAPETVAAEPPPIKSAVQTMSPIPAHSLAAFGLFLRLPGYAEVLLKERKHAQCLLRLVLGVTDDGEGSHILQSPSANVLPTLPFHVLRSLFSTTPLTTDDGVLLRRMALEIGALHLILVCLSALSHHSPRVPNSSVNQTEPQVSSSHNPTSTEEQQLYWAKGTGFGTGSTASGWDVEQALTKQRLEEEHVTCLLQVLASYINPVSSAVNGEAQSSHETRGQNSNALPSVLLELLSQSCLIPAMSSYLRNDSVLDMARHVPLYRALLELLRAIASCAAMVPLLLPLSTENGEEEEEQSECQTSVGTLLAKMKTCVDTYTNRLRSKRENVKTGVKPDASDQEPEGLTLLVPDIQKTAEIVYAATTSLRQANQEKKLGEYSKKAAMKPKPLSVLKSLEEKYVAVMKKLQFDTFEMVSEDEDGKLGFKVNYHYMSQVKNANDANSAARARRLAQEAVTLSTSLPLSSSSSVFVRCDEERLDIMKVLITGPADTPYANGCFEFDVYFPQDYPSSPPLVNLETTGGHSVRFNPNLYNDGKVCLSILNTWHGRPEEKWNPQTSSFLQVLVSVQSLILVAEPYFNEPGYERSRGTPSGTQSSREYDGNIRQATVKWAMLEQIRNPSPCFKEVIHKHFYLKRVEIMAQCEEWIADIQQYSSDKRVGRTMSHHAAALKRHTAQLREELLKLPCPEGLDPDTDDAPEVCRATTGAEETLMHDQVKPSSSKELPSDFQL
# Technique: yeast two-hybrid
# Matrix: yeast
# Setting: mostly zero background
# Reference: not given
# Direction: higher = stronger interaction
# B1: RNF130 RING domain (UniProt Q86XS8); chain DKETDPDFDHCAVCIESYKQNDVVRILPCKHVFHKSCVDPWLSEHCTCPMCKLNILKALGIV
# B2: NHLRC1 RING domain (UniProt Q6VVB1); chain MREAEISLLECKVCFEKFGHRQQRRPRNLSCGHVVCLACVAALAHPRTLALECPFCRRACRGCDTSD
# B3: RMND5B RING domain (UniProt Q96G75); chain MKCWYHSVFACPILRQQTSDSNPPIKLICGHVISRDALNKLINGGKLKCPYCPMEQNPADGK
# B4: MARCHF2 RING domain (UniProt Q9P0N8); chain RLLSTVIRALDTPSDGPFCRICHEGANGECLLSPCGCTGTLGAVHKSCLEKWLSSSNTSYCELCHTEFAVEKRPRPLTEWL
# B5: PJA2 RING domain (UniProt O43164); chain DHTAIGQEQCCPICCSEYIKDDIATELPCHHFFHKPCVSIWLQKSGTCPVCRRHFPPAVIEA
# B6: SHPRH RING domain (UniProt Q149N8); chain KTSGGVNPEPCPICARQLGKQWAVLTCGHCFCNECISIIIEQYSVGSHRSSIKCAICRQTTSHKEISY
# B7: CBLL1 RING domain (UniProt Q75N03); chain GEKDDTPVHFCDKCGLPIKIYGRMIPCKHVFCYDCAILHEKKGDKMCPGCSDPVQRIEQCT
# B8: TRIM28 RING domain (UniProt Q13263); chain GAEALELLEHCGVCRERLRPEREPRLLPCLHSACSACLGPAAPAAANSSGDGGAAGDGTVVDCPVCKQQCFSKDIVE
# B9: RNF11 RING domain (UniProt Q9Y3C5); chain RDGSEKKIRECVICMMDFVYGDPIRFLPCMHIYHLDCIDDWLMRSFTCPSCMEPVDAALLSS
# B10: RNF115 RING domain (UniProt Q9Y4L5); chain TQEQVDMGLECPVCKEDYTVEEEVRQLPCNHFFHSSCIVPWLELHDTCPVCRKSLNGEDSTR
# B11: TRIM74 RING domain (UniProt Q86UV6); chain SLLELEDWLQCPICLEVFKESLMLQCGHSYCKGCLVSLSYHLDTKVRCPMCWQVVDGSSSLP
# B12: RNF7 RING domain (UniProt Q9UBF6); chain AICRVQVMDACLRCQAENKQEDCVVVWGECNHSFHNCCMSLWVKQNNRCPLCQQDWVVQRIGK
Sequence,lacZ reporter activity
B1 (RNF130 RING domain),0
B2 (NHLRC1 RING domain),0
B3 (RMND5B RING domain),0
SNNDLASLFECPVCFDYVLPPILQCQSGHLVCSNCRPKLTCCPTCRGPLGSIRNLA (SIAH1 RING domain (UniProt Q8IUQ4)),0
B4 (MARCHF2 RING domain),0
B5 (PJA2 RING domain),0
GSEEEEIPFRCFICRQAFQNPVVTKCRHYFCESCALEHFRATPRCYICDQPTGGIFNPA (RNF113B RING domain (UniProt Q8IZP6)),0
B6 (SHPRH RING domain),0
B7 (CBLL1 RING domain),0
B8 (TRIM28 RING domain),0
B9 (RNF11 RING domain),0
B10 (RNF115 RING domain),0
AAQLLEEKLTCAICLGLYQDPVTLPCGHNFCGACIRDWWDRCGKACPECREPFPDGAELR (TRIM65 RING domain (UniProt Q6PJ69)),0
FLSKVEETFQCICCQELVFRPITTVCQHNVCKDCLDRSFRAQVFSCPACRYDLGRSYAMQ (UHRF1 RING domain (UniProt Q96T88)),0
B11 (TRIM74 RING domain),0
B12 (RNF7 RING domain),0

# Block 3
# Target: Hepatocyte nuclear factor 3-alpha (Foxa1, Mus musculus, UniProt P35582, residues 1-468, full length assumed)
# Technique: EMSA with sequencing
# Molecule type: double-stranded DNA, one strand shown
# Matrix: in vitro
# Concentration: 10 and 20 nM
# Setting: whole designed probe, mean of two concentrations, ends assumed
# Reference: negative control set to 0
# Direction: higher = stronger binding
# Constant ends, left off below: GTGAGCGGTGCCCATTGATGGGGAAC … TTTCACTGGGATCGTGGGGAC
# Target sequence (chain): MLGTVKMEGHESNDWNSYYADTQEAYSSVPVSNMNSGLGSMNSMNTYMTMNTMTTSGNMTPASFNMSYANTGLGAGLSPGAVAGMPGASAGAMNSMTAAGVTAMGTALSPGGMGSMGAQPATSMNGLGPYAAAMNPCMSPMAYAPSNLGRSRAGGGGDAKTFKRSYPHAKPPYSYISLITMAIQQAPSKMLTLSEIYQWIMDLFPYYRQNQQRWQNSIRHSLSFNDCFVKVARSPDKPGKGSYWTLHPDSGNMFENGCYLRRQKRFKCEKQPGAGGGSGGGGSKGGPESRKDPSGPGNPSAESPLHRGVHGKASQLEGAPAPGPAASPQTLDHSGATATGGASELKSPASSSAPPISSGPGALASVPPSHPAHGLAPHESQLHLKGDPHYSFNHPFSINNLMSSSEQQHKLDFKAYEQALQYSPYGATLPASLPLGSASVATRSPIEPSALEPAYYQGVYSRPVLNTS
Sequence,normalised bound fraction
ATCTTCCCCCTCTTCCTTGCCCCACCAGCTCACCTTCCCGGGTTATTTGCACAAAGGAAAATAAATAAAGCCGGCATTCGTTAACGCAGTTCTGGCGCAAACTGCTGTTTGCTCTGCATCTAACATGGTCCTTACGCGACGCCAGGCTCCGGGAGAGCAAAGCACCGTGTCAGGCGCATGATCCGGGGTGGCC,0.384 ratio
CTTTGAGTTTTCAGAGTGACTCAACACAGTTGAACTATGAATCACTTCAGTATTGTCTGTGCACACCAAAGCCCTGGCATATGGAGCAGGAGAGTACTCTAGAAAGCTCTTTCCCAGCCCTGAGCTCTCAGAGCTTTCCCTAGGTGTGTGATGAGGCCACTTTCCCCCATCACTTCCCCAAGTCTAGATGTCC,-0.0402 ratio
ATCTTCCCCCTCTTCCTTGCCCCACCAGCTCACCTTCCCGGGTTATTTGCAGATAGGAAAATAAATAAAGCCGGCATTCGTTAACCCTCTTCTGGCGCAAACTGCTGTTTGCTCTGGATGAATCATGGTCCTTTGGCGACGCCAGGCTCCGGGAGAGCAAAGCACCGTGTCAGGGCCATGATCCGGGCTCGCC,0.338 ratio
ACATTTGGGTCATTCCACCCTTTGACTAATGTGATCAGTGCTGCTCTGAACATTCGTGTATGAGTATTTGAGGATCGTTTTCACTTCTCTTGGGTAAACATCTAGGAGTGAAATTCCAGAGTCATAGGGCAGTTTTATGTGTAACTACTTTTTGAGGAGTGCAGTGGCATAATCTTGCCTCACTGAAACCTCC,0.265 ratio
ATCTTCCCCCTCTTCCTTGCCCCACCAGCTCACCTTCCCGGGTTATTTGCAGATAGGAAAATAAATAAAGCCGGCATTCGTTAACGCAGTTCTGGCGCAAACTGCTGTTTGCTCTGCATGAATCATGGTCCTTACGCGACGCCAGGCTCCGGGAGAGCAAAGCACCGTGTCAGGCGCATGATCCGGGGTGGCC,0.352 ratio
GGCTGCTTCTCCCTTTTGGCTGTTGTGCATATTGCTGCTATGAACATGGGTGTGCAAATACCTCTTTGAGTCACTGCTTTCACTTCTTTTTAGTATTTACTCAGCAGTGGAATTGCTGAGTCATGTGATAATTCTGTGTTTAATTTTTTTTGAGGAAACTCCATACTGTTCTCATGGTGGCTGCACCATTTAA,0.358 ratio
CAATGGGGTAGGTCAGCCCCAGTGAACTCTCAAATGACCACTGAAGGAGGAAGTGAGTGCAGAGTGTGATACCACTCACATCCCAGCCCAGACTGTTTGCTCAGCTGGGAGGAGTGTTGCAATTCTTCTTCCTGCAGAGATAACACCCCTTCTCATGGCTTCAGGCATCACCTATCTCCTCTAGGCTGCGCTC,0.193 ratio
TACCAAAAATATCTAGAATGGAATGACATCTCCTCTAAGGCAGGGGATAATTAACTTGTCCCCACAAAGTATAAATAATCTCTTTCTTCACAAAGTAAACATGTTTTTCTGACACTATCTGACATTTCCATCCAGTGTGCTTTTGAAACTGTATGCTCTTGTTTTTGTTTTTTATTTTTGTTTTTTTTGTTCA,0.417 ratio

# Block 4
# Target: Histone acetyltransferase KAT6A, both winged helices, GST fusion (KAT6A, Homo sapiens, UniProt Q92794, residues 1-181)
# Technique: protein binding microarray
# Molecule type: double-stranded DNA, one strand shown
# Matrix: in vitro
# Concentration: not given
# Setting: 8-mer, flanks averaged, mean of 2 arrays, mostly near background
# Reference: not given
# Direction: higher = stronger binding
# Residues (chain): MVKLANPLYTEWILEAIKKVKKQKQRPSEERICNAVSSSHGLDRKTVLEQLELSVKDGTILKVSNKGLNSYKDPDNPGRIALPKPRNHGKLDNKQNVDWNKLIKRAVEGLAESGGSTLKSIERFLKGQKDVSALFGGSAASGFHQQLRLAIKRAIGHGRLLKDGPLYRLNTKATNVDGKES
Sequence,E-score
TGCTGTAA,-0.161
CGAAAGCG,0.206
CTATCAAC,0.0613
GAATATTC,0.213
GATTCCCC,0.0854
ACGAGTAG,0.107
CATTTGTC,-0.194
AAAGCTCG,-0.0959
AGTAGGTA,-0.152
AGTATAGA,-0.0403
CAAGGGCG,0.152
ATCAACAC,-0.0751
TTATAGAA,-0.0681
AGCCAACA,-0.074
GACGGACA,0.197
ATAGATAC,-0.0685
ATAGCACG,0.107
GGTGGGAA,-0.11
GCTTCGGA,0.101
AGACTATA,-0.0185
AATTAGCG,0.188
TATCCAGA,-0.0451
ATGCAAGA,-0.271
CCCTAATC,-0.261
ATGAGCGG,0.162

# For quick reference, copied from above (block 2):
Sequence,lacZ reporter activity
B10 (RNF115 RING domain),0
B2 (NHLRC1 RING domain),0
B8 (TRIM28 RING domain),0
B5 (PJA2 RING domain),0
